Results from different studies.
“And” joins repeats or separate records; there may be more than shown. ± marks the error that the study gave.
MAP2K1: MAP2K1 (Homo sapiens, UniProt Q02750)
MAP1LC3B: MAP1LC3B fragment (Homo sapiens)
IL13: IL13 fragment (Homo sapiens)
B1: ficolin-A mature (Rattus norvegicus, UniProt Q9WTS8); sequence looked up; chain SQALGQESGACPDVKIVGLGAQDKVAVIQSCPSFPGPPGPKGEPGSPAGRGERGLQGSPGKMGPPGSKGEPGTMGPPGVKGEKGERGTASPLGQKELGDALCRRGPRSCKDLLTRGIFLTGWYTIYLPDCRPLTVLCDMDVDGGGWTVFQRRVDGSINFYRDWDSYKRGFGNLGTEFWLGNDYLHLLTANGNQELRVDLREFQGQTSFAKYSSFQVSGEQEKYKLTLGQFLEGTAGDSLTKHNNMAFSTHDQDNDTNGGKNCAALFHGAWWYHDCHQSNLNGRYLPGSHESYADGINWLSGRGHRYSYKVAEMKIRAS
B2: PUX5 301-421 (Arabidopsis thaliana, UniProt Q7Y175); chain KNPFQGVGRTLGASGSGSSSAPQASSAPMNVAPAPSRGLVVDPAAPTTSIQLRLADGTRLVSRFNNHHTVRDVRGFIDASRPGGSKEYQLLTMGFPPKQLTELDQTIEQAGIANAVVIQKF
B3: BRAF kinase 448-723 K723G/P722S/S720E/L716E/S713E/Q709R/L706S/A688R/Y673S/N661V/K630S/V600E/L588N/Q562R (Homo sapiens, UniProt P15056); sequence looked up; chain DDWEIPDGQITVGQRIGSGSFGTVYKGKWHGDVAVKMLNVTAPTPQQLQAFKNEVGVLRKTRHVNILLFMGYSTKPQLAIVTQWCEGSSLYHHLHASETKFEMKKLIDIARQTARGMDYLHAKSIIHRDLKSNNIFLHEDNTVKIGDFGLATEKSRWSGSHQFEQLSGSILWMAPEVIRMQDSNPYSFQSDVYAFGIVLYELMTGQLPYSNINVRDQIIFMVGRGSLSPDLSKVRSNCPKRMKRLMAECLKKKRDERPSFPRILAEIEELARELSG
B4: TEPSIN M474S/E475S/V477S (Homo sapiens, UniProt Q96N21); chain MAAAPPLRDRLSFLHRLPILLKGTSDDDVPCPGYLFEEIAKISHESPGSSQCLLEYLLSRLHSSSGHGKLKVLKILLYLCSHGSSFFLLILKRNSAFIQEAAAFAGPPDPLHGNSLYQKVRAAAQDLGSTLFSDTVLPLAPSQPLGTPPATGMGSQARPHSTLQGFGYSKEHGRTAVRHQPGQAGGGWDELDSGPSSQNSSQNSDLSRVSDSGSHSGSDSHSGASREPGDLAERVEVVALSDCQQELSLVRTVTRGPRAFLSREEAQHFIKACGLLNCEAVLQLLTCHLRGTSECTQLRALCAIASLGSSDLLPQEHILLRTRPWLQELSMGSPGPVTNKATKILRHFEASCGQLSPARGTSAEPGPTAALPGPSDLLTDAVPLPGSQVFLQPLSSTPVSSRSPAPSSGMPSSPVPTPPPDASPIPAPGDPSEAEARLAESRRWRPERIPGGTDSPKRGPSSCAWSRDSLFAGSSLSACPRLVGAGAAAGESCPDAPRAPQTSSQRTAAKEPPGSEPSAFAFLNA
B5: IgG; V domains shown; VH QVQLVQSGAEVKKPGASVKVSCKASGYTFTNYGLSWVRQAPGQGLEWMGWISANNGDTNYGQEFQGRVTMTTDTSTSTAYMELRSLRSDDTAVYYCARDSSSSWARWFFDLWGRGTLVTVSS; VL SYVLTQPPSVSVAPGKTARITCGGNIIGSKLVHWYQQKPGQAPVLVIYDDGDRPSGIPERFSGSNSGNTATLTISRVEAGDEADYYCQVWDTGSDPVVFGGGTKLTVL
B6: C1s CCP2-SP domains; glycosylated; chain 1 VDCGIPESIENGKVEDPESTLFGSVIRYTCEEPYYYMENGGGGEYHCAGNGSWVNEVLGPELPKCVPVCGVPREPFEEKQR; chain 2 IIGGSDADIKNFPWQVFFDNPWAGGALINEYWVLTAAHVVEGNREPTMYVGSTSVQTSRLAKSKMLTPEHVFIHPGWKLLEVPEGRTNFDNDIALVRLKDPVKMGPTVSPICLPGTSSDYNLMDGDLGLISGWGRTEKRDRAVRLKAARLPVAPLRKCKEVKVEKPTADAEAYVFTPNMICAGGEKGMDSCKGDAGGAFAVQDPNDKTKFYAAGLVSWGPQCGTYGLYTRVKNYVDWIMKTMQENSTPRED
B7: EFR3A 721-791 (Homo sapiens, UniProt Q14156); chain SNTEEITFEALKKAIDTSGMEEQEKEKRRLVIEKFQKAPFEEIAAQCESKANLLHDRLAQILELTIRPPPS
B8: IgG L:G68W; V domains shown; VH QVQLVQSGAEVKKPGASVKVSCKASGYTFTNYGLSWVRQAPGQGLEWMGWISANNGDTNYGQEFQGRVTMTTDTSTSTAYMELRSLRSDDTAVYYCARDSSSSWARWFFDLWGRGTLVTVSS; VL SYVLTQPPSVSVAPGKTARITCGGNIIGSKLVHWYQQKPGQAPVLVIYDDGDRPSGIPERFSGSNSWNTATLTISRVEAGDEADYYCQVWDTGSDPVVFGGGTKLTVL
B9: C1S 438-688 S632A (Homo sapiens, UniProt P09871); chain IIGGSDADIKNFPWQVFFDNPWAGGALINEYWVLTAAHVVEGNREPTMYVGSTSVQTSRLAKSKMLTPEHVFIHPGWKLLEVPEGRTNFDNDIALVRLKDPVKMGPTVSPICLPGTSSDYNLMDGDLGLISGWGRTEKRDRAVRLKAARLPVAPLRKCKEVKVEKPTADAEAYVFTPNMICAGGEKGMDSCKGDAGGAFAVQDPNDKTKFYAAGLVSWGPQCGTYGLYTRVKNYVDWIMKTMQENSTPRED
B10: IL23R 24-355 (Homo sapiens, UniProt Q5VWK5); sequence looked up; chain GITNINCSGHIWVEPATIFKMGMNISIYCQAAIKNCQPRKLHFYKNGIKERFQITRINKTTARLWYKNFLEPHASMYCTAECPKHFQETLICGKDISSGYPPDIPDEVTCVIYEYSGNMTCTWNAGKLTYIDTKYVVHVKSLETEEEQQYLTSSYINISTDSLQGGKKYLVWVQAANALGMEESKQLQIHLDDIVIPSAAVISRAETINATVPKTIIYWDSQTTIEKVSCEMRYKATTNQTWNVKEFDTNFTYVQQSEFYLEPNIKYVFQVRCQETGKRYWQPWSSLFFHKTPETVPQVTSKAFQHDTWNSGLTVASISTGHLTSDNRGDIG
B11: EFR3B 716-787 (Homo sapiens, UniProt Q9Y2G0); chain VPAEEITYETLKKAIVDSVAVEEQERERRRQVVEKFQKAPFEEIAAHCGARASLLQSKLNQIFEITIRPPPS
B12: BRAF kinase 448-723 K723G/P722S/S720E/L716E/S713E/Q709R/L706S/A688R/Y673S/N661D/K630S/V600E/L588N/Q562R (Homo sapiens, UniProt P15056); sequence looked up; chain DDWEIPDGQITVGQRIGSGSFGTVYKGKWHGDVAVKMLNVTAPTPQQLQAFKNEVGVLRKTRHVNILLFMGYSTKPQLAIVTQWCEGSSLYHHLHASETKFEMKKLIDIARQTARGMDYLHAKSIIHRDLKSNNIFLHEDNTVKIGDFGLATEKSRWSGSHQFEQLSGSILWMAPEVIRMQDSNPYSFQSDVYAFGIVLYELMTGQLPYSNINDRDQIIFMVGRGSLSPDLSKVRSNCPKRMKRLMAECLKKKRDERPSFPRILAEIEELARELSG
B13: BRAF kinase 448-723 K723G/P722S/S720E/L716E/S713E/Q709R/L706S/A688R/Y673S/K630S/V600E/L588N/Q562R/I551K (Homo sapiens, UniProt P15056); sequence looked up; chain DDWEIPDGQITVGQRIGSGSFGTVYKGKWHGDVAVKMLNVTAPTPQQLQAFKNEVGVLRKTRHVNILLFMGYSTKPQLAIVTQWCEGSSLYHHLHASETKFEMKKLIDIARQTARGMDYLHAKSIIHRDLKSNNIFLHEDNTVKIGDFGLATEKSRWSGSHQFEQLSGSILWMAPEVIRMQDSNPYSFQSDVYAFGIVLYELMTGQLPYSNINNRDQIIFMVGRGSLSPDLSKVRSNCPKRMKRLMAECLKKKRDERPSFPRILAEIEELARELSG
B14: TEPSIN L438S/W444S (Homo sapiens, UniProt Q96N21); chain MAAAPPLRDRLSFLHRLPILLKGTSDDDVPCPGYLFEEIAKISHESPGSSQCLLEYLLSRLHSSSGHGKLKVLKILLYLCSHGSSFFLLILKRNSAFIQEAAAFAGPPDPLHGNSLYQKVRAAAQDLGSTLFSDTVLPLAPSQPLGTPPATGMGSQARPHSTLQGFGYSKEHGRTAVRHQPGQAGGGWDELDSGPSSQNSSQNSDLSRVSDSGSHSGSDSHSGASREPGDLAERVEVVALSDCQQELSLVRTVTRGPRAFLSREEAQHFIKACGLLNCEAVLQLLTCHLRGTSECTQLRALCAIASLGSSDLLPQEHILLRTRPWLQELSMGSPGPVTNKATKILRHFEASCGQLSPARGTSAEPGPTAALPGPSDLLTDAVPLPGSQVFLQPLSSTPVSSRSPAPSSGMPSSPVPTPPPDASPIPAPGDPSEAEARSAESRRSRPERIPGGTDSPKRGPSSCAWSRDSLFAGMELVACPRLVGAGAAAGESCPDAPRAPQTSSQRTAAKEPPGSEPSAFAFLNA
B15: TGM4 (Heligmosomoides polygyrus); chain GCMPFSDETASYKYLTERSRNDETPAQNDSSGAYPDHTHVKRFCKGLHGEEKTGRYVGICLGSEWVYYQGVQECQDRRCSPLPTNDTVTYEYLKATVNAGINFNITVHPDASGKYPELTYIKRICKNFPADSKVQGHIIGMCYNAEWRFSSTPTCPPSGCPPLPDDGIVFYEYYGYAGNRHTVGRAVSKDSSGNYPPQTHARRRCRALSQKADPGEFVGICYKSGTTGESHWDYYSHIRKCPDPRCKPLETNVSVHYEYFTMTNETGRKEGTPAEVDKGGKYPQHTCVRKFCDKSPYTCSVKGPIFGECLDGQWNFTALDECLNARGCNSDDLFDKLGFEGVMVREEEGSDSYKDDFVRFYATGSKVNAECKGKTVQLECSDGEWHDPGTKTVHRCTKEGIRAL
Chain of UniProt P05155 (whole entry, unmodified, looked up): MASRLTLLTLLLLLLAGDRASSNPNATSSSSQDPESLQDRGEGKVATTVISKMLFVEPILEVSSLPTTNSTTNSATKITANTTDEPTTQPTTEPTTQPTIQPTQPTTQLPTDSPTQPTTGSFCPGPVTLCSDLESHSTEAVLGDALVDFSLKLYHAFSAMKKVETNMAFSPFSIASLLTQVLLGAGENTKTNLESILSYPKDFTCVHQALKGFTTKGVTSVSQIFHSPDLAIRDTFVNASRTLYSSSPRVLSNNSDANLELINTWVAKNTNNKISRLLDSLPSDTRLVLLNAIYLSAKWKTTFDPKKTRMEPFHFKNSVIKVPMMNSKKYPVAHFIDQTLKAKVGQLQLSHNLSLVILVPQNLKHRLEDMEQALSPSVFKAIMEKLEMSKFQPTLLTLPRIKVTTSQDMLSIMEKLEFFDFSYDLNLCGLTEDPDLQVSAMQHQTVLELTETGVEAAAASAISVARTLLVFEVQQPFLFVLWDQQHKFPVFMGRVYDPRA
Chain of UniProt Q9Z1P8 (whole entry, looked up): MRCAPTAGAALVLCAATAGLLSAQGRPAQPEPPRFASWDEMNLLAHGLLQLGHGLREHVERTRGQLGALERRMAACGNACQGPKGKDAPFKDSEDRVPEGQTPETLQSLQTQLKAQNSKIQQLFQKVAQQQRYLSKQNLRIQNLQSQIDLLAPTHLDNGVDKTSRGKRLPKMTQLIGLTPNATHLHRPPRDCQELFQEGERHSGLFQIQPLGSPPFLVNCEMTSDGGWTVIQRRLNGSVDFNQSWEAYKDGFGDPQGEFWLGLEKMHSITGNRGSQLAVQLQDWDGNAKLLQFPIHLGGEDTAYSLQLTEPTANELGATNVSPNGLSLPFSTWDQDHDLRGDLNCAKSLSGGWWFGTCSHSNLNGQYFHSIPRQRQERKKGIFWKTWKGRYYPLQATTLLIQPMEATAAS
Chain of UniProt P54609 (whole entry, looked up): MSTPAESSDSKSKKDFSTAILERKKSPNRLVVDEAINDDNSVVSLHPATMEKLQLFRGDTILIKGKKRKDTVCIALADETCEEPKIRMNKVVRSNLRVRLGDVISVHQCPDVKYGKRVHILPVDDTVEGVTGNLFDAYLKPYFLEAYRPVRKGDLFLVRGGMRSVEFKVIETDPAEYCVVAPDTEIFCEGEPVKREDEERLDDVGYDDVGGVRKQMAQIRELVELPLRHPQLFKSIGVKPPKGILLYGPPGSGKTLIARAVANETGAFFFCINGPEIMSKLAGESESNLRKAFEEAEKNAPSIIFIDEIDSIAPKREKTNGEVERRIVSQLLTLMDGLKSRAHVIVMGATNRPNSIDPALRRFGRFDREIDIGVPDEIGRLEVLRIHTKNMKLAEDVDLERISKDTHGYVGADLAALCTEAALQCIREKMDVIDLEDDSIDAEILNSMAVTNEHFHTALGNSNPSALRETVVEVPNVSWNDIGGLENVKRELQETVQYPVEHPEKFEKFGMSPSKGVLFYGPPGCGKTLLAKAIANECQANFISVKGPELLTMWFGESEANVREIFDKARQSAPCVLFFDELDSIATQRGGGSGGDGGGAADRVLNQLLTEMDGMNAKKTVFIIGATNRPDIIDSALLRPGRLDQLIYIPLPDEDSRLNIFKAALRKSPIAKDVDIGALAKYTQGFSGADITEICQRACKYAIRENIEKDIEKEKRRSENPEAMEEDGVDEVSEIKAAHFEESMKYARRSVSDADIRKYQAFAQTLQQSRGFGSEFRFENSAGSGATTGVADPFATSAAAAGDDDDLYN
Chain of UniProt P97287 (whole entry, looked up): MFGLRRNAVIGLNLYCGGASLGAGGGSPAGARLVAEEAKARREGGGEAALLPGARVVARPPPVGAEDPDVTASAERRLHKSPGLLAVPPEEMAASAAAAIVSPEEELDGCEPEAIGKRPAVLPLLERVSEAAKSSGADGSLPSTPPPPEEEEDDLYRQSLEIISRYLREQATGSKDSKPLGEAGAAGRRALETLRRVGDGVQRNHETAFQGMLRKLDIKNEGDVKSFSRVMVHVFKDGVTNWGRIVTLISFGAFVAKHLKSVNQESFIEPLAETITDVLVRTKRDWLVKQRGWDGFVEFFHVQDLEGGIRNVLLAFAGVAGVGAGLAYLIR
Chain of UniProt P48356 (whole entry, unmodified, looked up): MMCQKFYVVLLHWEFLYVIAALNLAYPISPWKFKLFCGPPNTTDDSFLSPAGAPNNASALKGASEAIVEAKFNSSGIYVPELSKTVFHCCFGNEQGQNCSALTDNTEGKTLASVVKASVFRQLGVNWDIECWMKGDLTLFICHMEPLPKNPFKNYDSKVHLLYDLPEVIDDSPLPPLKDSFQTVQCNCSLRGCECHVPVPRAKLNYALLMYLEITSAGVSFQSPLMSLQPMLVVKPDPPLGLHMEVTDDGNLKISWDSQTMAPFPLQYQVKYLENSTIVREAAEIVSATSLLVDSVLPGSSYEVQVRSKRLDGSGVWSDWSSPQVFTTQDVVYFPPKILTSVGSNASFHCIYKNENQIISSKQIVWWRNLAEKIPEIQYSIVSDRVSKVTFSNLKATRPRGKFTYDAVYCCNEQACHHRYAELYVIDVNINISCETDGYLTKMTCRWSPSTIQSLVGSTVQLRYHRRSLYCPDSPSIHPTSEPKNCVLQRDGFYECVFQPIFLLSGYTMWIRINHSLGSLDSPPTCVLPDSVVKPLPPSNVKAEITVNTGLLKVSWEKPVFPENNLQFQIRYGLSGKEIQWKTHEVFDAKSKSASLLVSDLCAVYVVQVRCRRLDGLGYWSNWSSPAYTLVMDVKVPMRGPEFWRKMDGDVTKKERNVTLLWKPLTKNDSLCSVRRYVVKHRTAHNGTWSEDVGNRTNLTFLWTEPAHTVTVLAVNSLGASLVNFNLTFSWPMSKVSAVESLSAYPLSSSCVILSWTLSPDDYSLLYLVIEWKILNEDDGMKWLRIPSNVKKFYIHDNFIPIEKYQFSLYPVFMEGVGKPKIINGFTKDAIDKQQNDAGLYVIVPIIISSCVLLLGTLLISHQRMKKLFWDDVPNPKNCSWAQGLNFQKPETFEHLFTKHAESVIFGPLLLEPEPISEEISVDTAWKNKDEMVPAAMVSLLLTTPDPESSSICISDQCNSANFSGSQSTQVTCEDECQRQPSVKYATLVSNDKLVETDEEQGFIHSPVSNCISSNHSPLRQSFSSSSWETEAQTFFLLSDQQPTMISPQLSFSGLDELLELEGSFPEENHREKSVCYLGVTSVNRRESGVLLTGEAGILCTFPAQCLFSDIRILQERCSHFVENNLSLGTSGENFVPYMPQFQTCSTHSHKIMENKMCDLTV
Chain of UniProt P20827 (whole entry, looked up): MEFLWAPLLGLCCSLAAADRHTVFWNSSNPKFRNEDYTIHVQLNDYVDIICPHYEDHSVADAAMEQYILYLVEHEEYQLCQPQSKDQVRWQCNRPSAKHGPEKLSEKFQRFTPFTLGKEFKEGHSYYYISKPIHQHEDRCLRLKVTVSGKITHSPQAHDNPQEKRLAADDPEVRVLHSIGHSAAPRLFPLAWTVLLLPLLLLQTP
Chain of UniProt P38646 (whole entry, unmodified, looked up): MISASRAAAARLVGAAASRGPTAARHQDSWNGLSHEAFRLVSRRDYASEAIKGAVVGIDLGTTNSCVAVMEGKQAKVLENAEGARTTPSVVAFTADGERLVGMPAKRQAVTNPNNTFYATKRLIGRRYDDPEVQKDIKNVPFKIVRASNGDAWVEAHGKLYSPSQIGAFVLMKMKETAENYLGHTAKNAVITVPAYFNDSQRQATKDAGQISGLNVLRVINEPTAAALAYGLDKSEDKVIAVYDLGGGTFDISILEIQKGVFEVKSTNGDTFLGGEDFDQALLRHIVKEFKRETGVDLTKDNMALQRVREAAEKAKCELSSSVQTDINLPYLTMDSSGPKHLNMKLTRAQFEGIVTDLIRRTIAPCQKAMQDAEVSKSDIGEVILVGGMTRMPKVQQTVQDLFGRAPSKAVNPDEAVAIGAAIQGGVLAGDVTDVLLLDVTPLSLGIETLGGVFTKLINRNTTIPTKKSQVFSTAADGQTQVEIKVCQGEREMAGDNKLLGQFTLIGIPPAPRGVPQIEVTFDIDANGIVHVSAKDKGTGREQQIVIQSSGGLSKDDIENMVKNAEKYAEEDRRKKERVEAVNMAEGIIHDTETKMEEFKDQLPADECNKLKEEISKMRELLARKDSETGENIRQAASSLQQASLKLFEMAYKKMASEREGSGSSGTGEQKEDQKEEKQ

B1 (ficolin-A mature)
koff (C1r/C1s full-length tetramer (Homo sapiens); SPR; with: CaCl2 140 mM): 0.000769 s⁻¹

CALLLSAPRR (GOT2 (Gallus gallus); fluorescein label)
koff (HSPA9 47-555 (Homo sapiens, UniProt P38646); FP; peptide): 0.00267 s⁻¹

B2 (PUX5 301-421)
koff (CDC48A 1-190 (Arabidopsis thaliana, UniProt P54609); BLI; 25 °C): 0.09 ± 0.01 s⁻¹

B3
koff (MAP2K1; BLI): 0.00254 s⁻¹

B4 (TEPSIN M474S/E475S/V477S)
koff (MAP1LC3B; BLI): 0.1 s⁻¹ and 0.092 s⁻¹ and 0.097 s⁻¹ and 0.099 s⁻¹

B5 (IgG)
koff (IL13; SPR; antibody): 0.000325 s⁻¹

B6 (C1s CCP2-SP domains)
koff (SERPING1 111-500 (Homo sapiens, UniProt P05155); SPR; with: Ca2+): 0.163 s⁻¹

KKVTFGLNRNMTAEFKKTDKSILVSPTGPSRVAFDPEQKPLH (RRP1B 682-723 (Homo sapiens, UniProt Q14684))
koff (PPP1CA 7-330 Q20R (Homo sapiens, UniProt P62136); SPR): 0.055 s⁻¹

B7 (EFR3A 721-791)
koff (TTC7B/FAM126A FAM126A 1-308; BLI): 1.68e-05 s⁻¹

B8 (IgG L:G68W)
koff (IL13; SPR; antibody): 0.00038 s⁻¹

B9 (C1S 438-688 S632A)
koff (SERPING1 111-500 K390A/Q392A (Homo sapiens, UniProt P05155); SPR; with: Ca2+): 0.0731 s⁻¹

EPHA2 fragment, auto-phosphorylated (Homo sapiens)
koff (EFNA1 (Homo sapiens, UniProt P20827); BLI; apparent): 0.00933 s⁻¹

DARPin G3 fragment
koff (ERBB2 23-652 (UniProt P04626); SPR): 4.93e-05 s⁻¹ and 5.45e-05 s⁻¹ and 4.84e-05 s⁻¹ and 6.28e-05 s⁻¹

ptsH fragment (Escherichia coli) (sequence not shown)
koff (ptsI fragment (Escherichia coli); NMR relaxation dispersion; with Ficoll-70): 4800 s⁻¹

B10 (IL23R 24-355)
koff (IL23A/IL12B mature heterodimer, glycosylated (Homo sapiens); SPR; Fc fusion): 0.0111 s⁻¹

B11 (EFR3B 716-787)
koff (TTC7B/FAM126A 1-308; BLI): 0.000219 s⁻¹

FGB dimer (Homo sapiens)
koff (CDH2 extracellular domain 1-551 (Homo sapiens); SPR; Langmuir fit, with: CaCl2): 0.00811 s⁻¹

EEEWAREIGAQLRRAADDLNAQYERRR (PUMA residues 130-156 M144A; N-acetyl, C-terminal amide)
koff (Mcl1 152-308 (Mus musculus, UniProt P97287); SPR; peptide): 0.0043 ± 0.0005 s⁻¹

B12
koff (MAP2K1; BLI): 0.00213 s⁻¹

ANGPTL4 (Mus musculus, UniProt Q9Z1P8)
koff (Lepr 22-839 (Mus musculus, UniProt P48356); SPR): 0.002 s⁻¹

B13
koff (MAP2K1; BLI): 0.00116 s⁻¹

B14 (TEPSIN L438S/W444S)
koff (MAP1LC3B; BLI): 0.083 s⁻¹ and 0.084 s⁻¹ and 0.086 s⁻¹ and 0.082 s⁻¹

B15 (TGM4)
koff (TGFBR2 extracellular domain (Homo sapiens); SPR): 0.84 s⁻¹

A few entries again:
ptsH fragment (Escherichia coli) (sequence not shown)
koff (ptsI fragment (Escherichia coli); NMR relaxation dispersion; with Ficoll-70): 4800 s⁻¹

B2 (PUX5 301-421)
koff (CDC48A 1-190 (Arabidopsis thaliana, UniProt P54609); BLI; 25 °C): 0.09 ± 0.01 s⁻¹

B10 (IL23R 24-355)
koff (IL23A/IL12B mature heterodimer, glycosylated (Homo sapiens); SPR; Fc fusion): 0.0111 s⁻¹

FGB dimer (Homo sapiens)
koff (CDH2 extracellular domain 1-551 (Homo sapiens); SPR; Langmuir fit, with: CaCl2): 0.00811 s⁻¹
